Results collected from several papers.
Lines come from different studies, so protocols differ. “And” joins repeats or separate records; there may be more than shown.
Target: Tyrosine-protein kinase CSK (CSK, Homo sapiens, UniProt P41240)

| Structure (SMILES) | assay | setting | scale | endpoint | value |
| --- | --- | --- | --- | --- | --- |
| C=CC(=O)Nc1cccc(-c2cnc3[nH]cc(C(=O)NC(C)(C)C)c3n2)c1 | kinase activity | 0.1 µM |  | inhibition | 7% and 1% |
| COc1cc(Nc2nc(C)cc(-c3cnn4nc(OC)ccc34)n2)cc(C(F)(F)F)c1 | inhibitor | 1 µM | relative to: control | remaining activity | 59% |
| CN1CCN(Cc2ccc(-c3ccc(CO[C@H]4CCC[C@@H]4NC(=O)c4cc(-c5cnn(C)c5)cnc4N)cc3)cc2)CC1 | enzyme activity, inhibitor | 0.1 µM |  | inhibition | 7% |
| CC(C)=CC1OC(C)(C)C2C=C3C(=O)C(Cl)=CC(O)C3C3C(O)C4OC4C(=O)C132 (centres unmarked) | cell-free assay, competition with immobilised ligand | 10 µM |  | remaining binding | 91% |
| CNC1C[S+]2CC[S+]3CC[S+](C1)[Ru-4]321([N]=C=S)[n]2c3ccc(OC)cc3c3c4c(c5cc(F)c[n+]1c5c32)C(=O)NC4=O (centres unmarked) | KinomeScan | 0.1 µM | relative to: untreated | remaining binding | 100% |
| CCn1cc(C(=O)O)c(=O)c2c(N)c(F)c(NC3CCCCC3)cc21 | kinase activity | 0.1 µM, with: ATP at Km |  | inhibition | 3.3% |
| Cc1ccc(-c2c(/C=C(\C#N)C(=O)NC(C)C)n(CCCO)c3ncnc(N)c23)cc1 | cell-free assay, competition with immobilised ligand | 1 µM |  | remaining binding | 100% |
| Cc1cccc(-c2ccc3nc(NC(=O)C4CCCCC4)nn3c2)c1 | enzyme activity, Dundee kinase panel | 10 µM |  | remaining activity | 94% |
| COc1c(Cl)cccc1Nc1c(-c2ccncc2C#C[C@@]2(C)CCCN2C(=O)/C=C/CN(C)C)[nH]c2c1C(=O)NCC2 | cell-free assay, competition with immobilised ligand | 3 µM |  | remaining binding | 85% |
| Cc1cccc(-c2ccc3nc(NC(=O)C4CCOCC4)nn3c2)c1 | enzyme activity, Dundee kinase panel | 10 µM |  | remaining activity | 81% |
| COc1c(OCCCN2CCOCC2)ccc2c1N=C(NC(=O)c1cnc(N)nc1)N1CCN=C21 | kinase activity, inhibitor | 1 µM | relative to: untreated control | remaining activity | 104% |
| O=C(Nc1ccc(Oc2ncnc3[nH]cc(-c4ccccc4)c23)c(F)c1)c1c2n(n(-c3cc(F)ccc3F)c1=O)CCCC2 | enzyme activity, inhibitor | 0.5 µM |  | inhibition | -14% |
| NC(=O)C[C@H]1CCc2sc3ncnc(O[C@H]4CC[C@H](N5CCOCC5)CC4)c3c21 | enzyme activity, inhibitor | 10 µM |  | inhibition | 21% |
| Cc1cccc(O[C@H]2CCC[C@@H](C(C)CNCc3ccncc3)C2)c1 (relative stereo) | kinase activity, kinome panel screening | 1 µM |  | inhibition | 4% |
| Cc1cnc2nc1Nc1cccc(c1)COC/C=C/COCc1cc(ccc1OCCN1CCOCC1)N2 | cell-free assay | 0.1 µM |  | remaining signal | 78% |
| CCN1CCN(Cc2ccc(C(=O)Nc3ccc(C)c(NCc4cnc5[nH]ccc5c4OC)c3)cc2C(F)(F)F)CC1 | binding, competition with immobilised ligand | 1 µM |  | remaining binding | 1% |
| O=c1c(-c2ccc(Cl)c(CN3CCOCC3)c2)coc2cc(O)ccc12 | enzyme activity, inhibitor | 1 µM |  | remaining activity | 122% |
| COCC12C(=O)NC3C4(C(OC)CC1O)C1CC5(O)C(OC)C(O)C(OC(C)=O)(C1C5OC(=O)c1ccccc1)C3(O)C(OC)C24 (centres unmarked) | kinase activity, inhibitor, ProQinase kinase profiling | 25 µM | relative to: control | remaining activity | 85% and 84% |
| COc1ccc(NC(=O)Nc2ccc3c(c2)C(=O)N(C(C)CO)CC(C)C(CN(C)Cc2ccc4c(c2)OCO4)O3)cc1 (centres unmarked) | kinase activity, KinaseProfiler | 0.03 µM, species human | relative to: control | remaining activity | 104% |
| C=CC(=O)N1Cc2nc(-c3cc(-c4cc(Cl)cnc4Cl)c(F)cc3F)n(-c3ccncn3)c2C1 | enzyme activity, inhibitor | 1 µM |  | inhibition | 6.3% |

Some of these lines once more:
| Structure (SMILES) | assay | setting | scale | endpoint | value |
| --- | --- | --- | --- | --- | --- |
| C=CC(=O)Nc1cccc(-c2cnc3[nH]cc(C(=O)NC(C)(C)C)c3n2)c1 | kinase activity | 0.1 µM |  | inhibition | 7% and 1% |
| COc1cc(Nc2nc(C)cc(-c3cnn4nc(OC)ccc34)n2)cc(C(F)(F)F)c1 | inhibitor | 1 µM | relative to: control | remaining activity | 59% |
